# Assay results of several laboratories.
# Compare with care: the assays were run in different laboratories. Several values in a cell are separate wells, animals, samples, runs or records. ± marks the error that the study gave.
SMILES,organism,assay,test system,setting,scale,quantity,result
O=C(CCC1CCN(c2cc(NC3CC3)ncn2)CC1)NCc1ccc(F)cc1F,Cedar virus,"viral replication, inhibitor",Vero C1008,48 h,,IC50,0.73 µM
COc1c(CNC(=O)c2cc(C3CC3)nn2C)cccc1OC(F)(F)F,Rhinovirus A,viral replication,"H1-HeLa, HRV-16",,,EC50,< 0.02 µM
O=C1/C(=N\NC(=S)NN=Cc2cccs2)c2ccccc2N1Cc1ccccc1,parainfluenza virus 3,viral cytopathogenicity,Vero,,,EC50,> 20 µM
CC[C@H](C)[C@@H]1NC(=O)[C@H](CC(C)C)NC(=O)[C@@H](NC(=O)[C@H](CO)NC(=O)[C@H](CCCNC(=N)N)NC(=O)[C@@H](N)CO)CSSC[C@H](NC(=O)[C@H](CO)NC(=O)[C@H](CCCNC(=N)N)NC(=O)[C@@H](N)CO)C(=O)N[C@@H](CC(C)C)C(=O)N[C@@H]([C@@H](C)CC)C(=O)N[C@@H](C(C)C)C(=O)N[C@H](C(=O)N[C@@H](CCC(N)=O)C(=O)N[C@@H](CCCNC(=N)N)C(=O)N[C@@H](CC(C)C)C(=O)N[C@@H](Cc2ccccc2)C(N)=O)CSSC[C@@H](C(=O)N[C@@H](CCC(N)=O)C(=O)N[C@@H](CCCNC(=N)N)C(=O)N[C@@H](CC(C)C)C(=O)N[C@@H](Cc2ccccc2)C(N)=O)NC(=O)[C@H](C(C)C)NC1=O,Candidozyma auris,broth microdilution,DSM 21092,,,MIC,30 µg/mL
CCOC(=O)C1=C[C@@H](OC(CC)CC)[C@H](NC(C)=O)[C@@H](NCCCCCCCCC(=O)N[C@H](C(=O)N2C[C@@H](O)C[C@H]2C(=O)N[C@@H](C)c2ccc(-c3scnc3C)cc2)C(C)(C)C)C1,Influenza A virus H1N1,viral replication,MDCK,concentration not given,,activity,inactive
CCOC(=O)c1nc2n(n1)C(O)(CC)C([N+](=O)[O-])=NN2 (stereo not shown),unidentified influenza virus,viral replication,"MDCK, H1N1",48 h,,IC50,> 1060 µM
C=C(C)C1C2OC(=O)C1C1(O)CC3OC34C(=O)OC2C14C (stereo not shown),Drosophila melanogaster,coated vial bioassay,Canton-S wild type,"concentration not given, adult flies",,mortality,not toxic
C#CCN(Cc1ccc2[nH]c(C)nc(=O)c2c1)c1ccc(C(=O)N[C@@H](CCC(=O)O)C(=O)O)cc1,Mycobacterium tuberculosis,,pptT knockdown without ATc,,,MIC90,> 100 µM
O=C1c2ccc(O)c(O)c2C(=O)N1Cc1cccc(Cl)c1F,HIV-1,viral replication,"wild type, VSV-G pseudotyped",,,EC50,0.7 ± 0.1 µM
Cc1cn(C2CC(N(C)C)C(CO)O2)c(=O)[nH]c1=O (stereo not shown),parainfluenza virus 3,viral replication,Vero,,,EC50,> 0.37 µM
CSC(=NNC(=O)c1ccc([N+](=O)[O-])cc1)SC,Mycobacterium,,Wells,,,MIC,6.2 µg/mL
CN(C)c1ccc(C=Nn2c(-c3ccccc3)nc3ccccc3c2=O)cc1,human parainfluenza virus 3,viral replication,Vero,,,EC50,> 20 µg/mL
Cc1nc(=O)c2cc(CN(C)c3ccc(C(=O)Nc4n[nH]c5ccccc45)s3)ccc2[nH]1,Mycobacterium tuberculosis,microbial growth,H37RV,,,MIC50,67.6 µM
Cc1cc(S(=O)(=O)N(C)CC(=O)Nc2ccn(C)c(=O)c2)c2[nH]ncc2c1,Mycobacterium tuberculosis,,"mouse BMDM, wild type","30 µM, 144 h",,growth inhibition,0.5 log10 and 1 log10
O=C(CCc1nc(-c2ccc(N3CCCC3)cc2)no1)NCCCN1CCOCC1,Cedar virus,viral replication,Vero C1008,,reference: CC50 over IC50,selectivity index,> 63
O=C(O)CCCC1C2CCCN3CCCC(CN1S(=O)(=O)c1ccc(Cl)cc1)C23 (stereo not shown),Vesicular stomatitis virus,viral entry,,VSV G pseudotyped HIV,,IC50,> 200 µM
CCOC(=O)c1cnn2c1NN=C([N+](=O)[O-])C2(O)CC (stereo not shown),unidentified influenza virus,viral replication,"MDCK, H1N1",48 h,,IC50,336 µM
c1ccc(CCNC2CCCc3c2[nH]c2ccc(C4CCCCC4)cc32)cc1 (stereo not shown),Mycobacterium bovis,,ATCC 35734,,,MIC,16 µg/mL
O=C(Cc1cccs1)N[C@@H]1C(=O)N2C(C(=O)O)=C(CSc3cccc[n+]3[O-])CS[C@H]12,Mycobacterium tuberculosis,,,"2.5 µM, replicating, over 5 log10",,time to CFU reduction,72 h
